Assay results collected from several papers.
Lines come from different studies, so protocols differ. Numbers after ± are the reported error.
TRPM8: Transient receptor potential cation channel subfamily M member 8 (TRPM8, Homo sapiens, UniProt Q7Z2W7)
UniProt Q7Z2W7, sequence (whole entry, looked up): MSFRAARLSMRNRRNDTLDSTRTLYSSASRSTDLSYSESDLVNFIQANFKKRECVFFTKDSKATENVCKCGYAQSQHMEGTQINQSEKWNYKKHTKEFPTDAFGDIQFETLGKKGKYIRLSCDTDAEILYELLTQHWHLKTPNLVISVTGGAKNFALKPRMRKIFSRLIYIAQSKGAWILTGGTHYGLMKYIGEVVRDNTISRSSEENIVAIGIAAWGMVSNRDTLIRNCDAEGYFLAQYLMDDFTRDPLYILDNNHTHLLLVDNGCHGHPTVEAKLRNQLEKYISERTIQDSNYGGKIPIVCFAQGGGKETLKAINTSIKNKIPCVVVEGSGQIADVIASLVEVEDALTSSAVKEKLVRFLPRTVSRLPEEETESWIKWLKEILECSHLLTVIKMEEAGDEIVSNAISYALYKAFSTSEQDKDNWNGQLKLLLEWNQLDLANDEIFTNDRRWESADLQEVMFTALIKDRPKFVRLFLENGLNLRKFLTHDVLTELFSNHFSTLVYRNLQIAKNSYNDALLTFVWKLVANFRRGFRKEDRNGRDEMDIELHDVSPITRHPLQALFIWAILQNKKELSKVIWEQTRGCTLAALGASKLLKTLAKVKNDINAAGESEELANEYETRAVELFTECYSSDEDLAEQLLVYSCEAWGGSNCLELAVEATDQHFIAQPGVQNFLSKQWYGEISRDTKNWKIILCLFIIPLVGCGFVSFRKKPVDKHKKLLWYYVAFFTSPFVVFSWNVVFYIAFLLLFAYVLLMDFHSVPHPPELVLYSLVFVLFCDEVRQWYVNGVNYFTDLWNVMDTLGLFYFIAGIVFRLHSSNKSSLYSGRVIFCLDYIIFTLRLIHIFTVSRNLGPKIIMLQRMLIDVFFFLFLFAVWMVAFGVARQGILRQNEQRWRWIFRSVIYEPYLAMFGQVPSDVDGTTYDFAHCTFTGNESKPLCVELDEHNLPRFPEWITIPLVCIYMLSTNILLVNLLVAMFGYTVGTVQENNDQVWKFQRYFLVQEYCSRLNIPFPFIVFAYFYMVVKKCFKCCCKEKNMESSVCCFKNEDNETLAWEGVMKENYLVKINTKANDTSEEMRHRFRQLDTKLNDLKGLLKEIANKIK
spsB: Signal peptidase IB (spsB, Staphylococcus aureus, UniProt Q5HHB9)
UniProt Q5HHB9, sequence (whole entry, looked up): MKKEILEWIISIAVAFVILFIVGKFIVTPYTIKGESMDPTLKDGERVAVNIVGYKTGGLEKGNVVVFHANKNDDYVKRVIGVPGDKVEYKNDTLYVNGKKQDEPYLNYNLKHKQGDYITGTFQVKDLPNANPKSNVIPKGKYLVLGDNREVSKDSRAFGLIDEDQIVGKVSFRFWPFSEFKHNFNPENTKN
MAP4K2: Mitogen-activated protein kinase kinase kinase kinase 2 (MAP4K2, Homo sapiens, UniProt Q12851)
UniProt Q12851, sequence (whole entry, looked up): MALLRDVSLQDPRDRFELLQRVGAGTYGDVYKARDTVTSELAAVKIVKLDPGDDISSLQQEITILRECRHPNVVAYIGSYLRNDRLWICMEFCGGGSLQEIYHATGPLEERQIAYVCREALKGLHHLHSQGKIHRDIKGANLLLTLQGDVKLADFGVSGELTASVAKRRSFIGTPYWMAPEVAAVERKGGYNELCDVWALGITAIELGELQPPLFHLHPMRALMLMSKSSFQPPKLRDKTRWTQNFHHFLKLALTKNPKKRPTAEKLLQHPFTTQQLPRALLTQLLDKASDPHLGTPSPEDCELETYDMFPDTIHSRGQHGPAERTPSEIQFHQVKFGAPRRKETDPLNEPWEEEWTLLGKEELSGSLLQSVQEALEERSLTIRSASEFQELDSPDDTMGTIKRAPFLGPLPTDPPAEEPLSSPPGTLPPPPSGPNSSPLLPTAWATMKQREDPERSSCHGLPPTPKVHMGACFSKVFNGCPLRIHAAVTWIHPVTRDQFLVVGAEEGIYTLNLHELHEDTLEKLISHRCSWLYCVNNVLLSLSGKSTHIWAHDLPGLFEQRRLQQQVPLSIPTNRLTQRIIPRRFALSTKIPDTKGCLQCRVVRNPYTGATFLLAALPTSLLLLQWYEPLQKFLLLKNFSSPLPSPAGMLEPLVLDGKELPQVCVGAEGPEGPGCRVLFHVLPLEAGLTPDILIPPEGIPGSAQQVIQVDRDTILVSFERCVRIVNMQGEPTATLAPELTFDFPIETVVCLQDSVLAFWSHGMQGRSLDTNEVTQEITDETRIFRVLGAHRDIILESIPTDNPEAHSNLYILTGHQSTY
UniProt Q8N752, sequence (whole entry, looked up): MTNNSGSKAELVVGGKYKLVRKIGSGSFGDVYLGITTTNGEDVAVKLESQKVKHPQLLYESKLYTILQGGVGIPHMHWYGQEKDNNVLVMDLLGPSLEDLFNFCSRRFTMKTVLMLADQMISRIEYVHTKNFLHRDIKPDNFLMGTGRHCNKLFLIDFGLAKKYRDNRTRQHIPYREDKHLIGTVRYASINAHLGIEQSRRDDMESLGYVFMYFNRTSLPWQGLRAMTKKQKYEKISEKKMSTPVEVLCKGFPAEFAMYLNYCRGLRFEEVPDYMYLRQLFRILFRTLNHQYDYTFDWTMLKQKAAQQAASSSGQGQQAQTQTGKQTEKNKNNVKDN
UniProt Q9UEE5, sequence (whole entry, looked up): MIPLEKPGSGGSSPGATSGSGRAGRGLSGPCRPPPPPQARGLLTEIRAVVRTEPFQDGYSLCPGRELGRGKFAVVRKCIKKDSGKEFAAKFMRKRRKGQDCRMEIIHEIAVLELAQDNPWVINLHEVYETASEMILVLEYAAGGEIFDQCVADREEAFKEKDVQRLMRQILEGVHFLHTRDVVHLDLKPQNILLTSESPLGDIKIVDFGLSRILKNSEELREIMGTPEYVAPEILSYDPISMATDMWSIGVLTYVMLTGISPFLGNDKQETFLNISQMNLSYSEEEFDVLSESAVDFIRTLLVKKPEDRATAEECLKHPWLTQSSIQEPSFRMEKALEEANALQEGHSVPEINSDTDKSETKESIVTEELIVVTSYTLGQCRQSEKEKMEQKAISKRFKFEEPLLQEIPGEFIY
UniProt Q86YV6, sequence (whole entry, looked up): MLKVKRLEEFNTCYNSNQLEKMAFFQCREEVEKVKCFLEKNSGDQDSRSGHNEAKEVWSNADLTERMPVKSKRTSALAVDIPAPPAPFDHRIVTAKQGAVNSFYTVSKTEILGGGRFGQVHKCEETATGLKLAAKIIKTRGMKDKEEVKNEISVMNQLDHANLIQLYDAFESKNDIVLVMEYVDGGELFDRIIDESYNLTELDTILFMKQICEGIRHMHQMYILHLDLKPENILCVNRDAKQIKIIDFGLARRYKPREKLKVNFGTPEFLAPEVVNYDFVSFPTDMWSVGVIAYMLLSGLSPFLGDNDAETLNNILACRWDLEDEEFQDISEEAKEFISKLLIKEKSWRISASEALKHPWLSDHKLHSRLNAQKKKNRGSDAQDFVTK
UniProt P06239, sequence (whole entry, looked up): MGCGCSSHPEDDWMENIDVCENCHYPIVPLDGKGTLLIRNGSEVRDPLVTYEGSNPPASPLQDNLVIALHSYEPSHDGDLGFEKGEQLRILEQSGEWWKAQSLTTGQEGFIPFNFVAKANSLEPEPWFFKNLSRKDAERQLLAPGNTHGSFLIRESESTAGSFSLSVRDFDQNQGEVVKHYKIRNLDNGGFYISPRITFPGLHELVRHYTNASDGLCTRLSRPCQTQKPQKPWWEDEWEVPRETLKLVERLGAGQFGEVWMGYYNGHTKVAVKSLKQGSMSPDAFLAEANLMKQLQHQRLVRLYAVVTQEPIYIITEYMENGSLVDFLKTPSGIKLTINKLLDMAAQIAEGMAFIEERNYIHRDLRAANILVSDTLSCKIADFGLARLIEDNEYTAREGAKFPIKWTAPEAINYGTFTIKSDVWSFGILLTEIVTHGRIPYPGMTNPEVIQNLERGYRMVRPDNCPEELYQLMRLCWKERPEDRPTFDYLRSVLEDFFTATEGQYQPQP

CN(C)C[C@H]1CCn2c(c(C3=C(c4cn(C)c5ccccc45)C(=O)NC3=O)c3ccccc32)C1 — remaining activity (TRPM8; antagonist; HEK293; 5 µM; baseline: control): 88.6 ± 6.69%
O=C(O)c1ccc(Nc2ncc3c(n2)-c2ccc(Cl)cc2C(c2c(F)cccc2F)=NC3)cc1 — remaining activity (human PAK6(h); kinase activity; 1 µM): 108%
CNc1ncc2c(/C=C/C(=O)N3CCC(OC)CC3)nn(Cc3cccc(C(F)(F)F)c3)c2n1 — remaining activity (STK39 (Homo sapiens, UniProt Q9UEW8); kinase activity, inhibitor; 1 µM; baseline: untreated control): 116%
CCc1ccc(NC(=O)Nc2ccc(Cl)c(C(F)(F)F)c2)cc1 — remaining activity (spsB; peptidase activity, activator, FRET peptide cleavage; Staphylococcus aureus, membranes; 100 µM; baseline: DMSO): 136%
COc1cc(F)ccc1-c1ncnc(Nc2cccc(C[S@](C)(=N)=O)c2)n1 — remaining activity (MAP4K2; kinase activity; 10 µM, with: 10 µM ATP): 32%
O=C(Nc1ccc(Cc2ccccc2)cc1)Nc1ccc(Cl)c(C(F)(F)F)c1 — remaining activity (spsB; peptidase activity, activator, FRET peptide cleavage; Staphylococcus aureus, membranes; 100 µM; baseline: DMSO): 176%
COc1cc(N2CCN(C)CC2)ccc1Nc1nc(N)n(C(=S)NCc2c(Cl)cccc2Cl)n1 — remaining activity (MYLK4 (Homo sapiens, UniProt Q86YV6); enzyme activity; 10 µM; baseline: control): 8.5%
C[C@@H](N)[C@H]1CC[C@H](C(=O)Nc2ccncc2)CC1 — remaining activity (TRPM8; antagonist; HEK293; 5 µM; baseline: control): 107 ± 3.71%
CCCCNC(=O)c1ccc(NC(=O)Nc2ccc(Cl)c(C(F)(F)F)c2)cc1 — remaining activity (spsB; peptidase activity, activator, FRET peptide cleavage; Staphylococcus aureus, membranes; 10 µM; baseline: DMSO): 121%
N#CC(C#N)=C(N)/C(C#N)=C/c1ccc(O)cc1 — remaining activity (TRPM8; antagonist; HEK293; 5 µM; baseline: control): 87.4 ± 9.24%
O=C(Nc1ccc2c(c1)CCC2)Nc1ccc(Cl)c(C(F)(F)F)c1 — remaining activity (spsB; peptidase activity, activator, FRET peptide cleavage; Staphylococcus aureus, membranes; 100 µM; baseline: DMSO): 118%
Cc1ccc(NC2=CC(=O)c3sc(C)nc3C2=O)cc1 — remaining activity (TRPM8; antagonist; HEK293; 5 µM; baseline: control): 75 ± 12.8%
C=CC(=O)N1CCC[C@@H](n2nc(-c3ccc(Oc4ccccc4)cc3)c3c(N)ncnc32)C1 — remaining activity (CSNK1A1L (Homo sapiens, UniProt Q8N752); 10 µM): 57.8%
O=C(NC1CCC1)c1ccc2nc(-c3cccc(NS(=O)(=O)NCCN4CCCCC4)c3)cn2c1 — remaining activity (FLT3 (Homo sapiens, UniProt P36888, D835V); enzyme activity; 10 µM): 30%
COc1ccc(-c2cnc3c(-c4ccsc4)cnn3c2)cc1 — remaining activity (TRPM8; antagonist; HEK293; 5 µM; baseline: control): 85.8 ± 7.46%
O=C(Nc1ccc(Cl)c(C(F)(F)F)c1)Nc1ccc2ccccc2c1 — remaining activity (spsB; peptidase activity, activator, FRET peptide cleavage; Staphylococcus aureus, membranes; 50 µM; baseline: DMSO): 153%
COc1cc(-c2cncc3c2CN(C)Cc2cc(N4CCNCC4)ccc2-3)cc(OC)c1OC — remaining activity (MAP4K2; kinase activity; 1 µM, human enzyme, with: ATP 10 µM; baseline: DMSO control): 85%
O=C1NC(=O)/C(=C/c2ccc(-c3ccc(F)cc3O)o2)S1 — remaining activity (LCK (Homo sapiens, UniProt P06239); enzyme activity; 10 µM): 110%
COc1ccc(F)cc1C(=O)NCc1ccc(-c2nn([C@@H](C)C(F)(F)F)c(N)c2C(N)=O)cc1 — remaining activity (FLT3 (Homo sapiens, UniProt P36888); kinase activity, inhibitor, HotSpot radiometric; 1000 nM, with: ATP at Km): 89.6 ± 0.6%
CN(C(=O)Nc1ccc(Cl)c(C(F)(F)F)c1)c1ccc2c(c1)OC(F)(F)O2 — remaining activity (spsB; peptidase activity, activator, FRET peptide cleavage; Staphylococcus aureus, membranes; 10 µM; baseline: DMSO): 112%
COc1cc(Nc2ncc3c(n2)-c2ccc(Cl)cc2C(c2c(F)cccc2OC)=NC3)ccc1C(=O)O — remaining activity (SRC N1; kinase activity; 1 µM): 18%
COc1ccc2c(c1)c(C1=C(c3c[nH]c4ccccc34)C(=O)NC1=O)cn2CCCN(C)C — remaining activity (TRPM8; antagonist; HEK293; 5 µM; baseline: control): 93.7 ± 8.89%
COc1cc(NC(=O)Nc2ccc(Cl)c(C(F)(F)F)c2)cc(OC)c1OC — remaining activity (spsB; peptidase activity, activator, FRET peptide cleavage; Staphylococcus aureus, membranes; 100 µM; baseline: DMSO): 242%
Nc1[nH]nc2nc3ccccc3nc12 — remaining activity (TRPM8; antagonist; HEK293; 5 µM; baseline: control): 95.8 ± 10%
O=C(Nc1cccc(NC(=O)Nc2ccc(Cl)c(C(F)(F)F)c2)c1)Nc1ccc(Cl)c(C(F)(F)F)c1 — remaining activity (spsB; peptidase activity, activator, FRET peptide cleavage; Staphylococcus aureus, membranes; 100 µM; baseline: DMSO): 174%
Nc1nccc(-c2c(-c3ccc(F)cc3)ncn2C2CCNCC2)n1 — remaining activity (TRPM8; antagonist; HEK293; 5 µM; baseline: control): 105 ± 9.01%
Cc1cc(Nc2cc(N3CCN(C)CC3)nc(Sc3ccc(NC(=O)C4CC4)cc3)n2)[nH]n1 — remaining activity (STK17A (Homo sapiens, UniProt Q9UEE5); kinase activity, KinaseProfiler; 0.03 µM, species human; baseline: control): 97%
